Assay results gathered from unrelated publications.
Numbered parts are unrelated; each lists some results of a single study. Substitutions count along the parent as printed.

Block 1
Target: RNA binding protein fox-1 homolog 2, RRM domain, GST-SBP tag (RBFOX2, Homo sapiens, UniProt O43251-10, residues 100-194)
Method: RNA Bind-n-Seq
Form: RNA
Medium: in vitro
Concentration: 365 nM
Notes: natural RNA segment, single round, ends assumed
Relative to: no-protein control
Direction: higher = stronger binding
Constant ends, left off below: GGGAGUUCUACAGUCCGACGAUC … UGGAAUUCUCGGGUGCCAA
Construct (chain): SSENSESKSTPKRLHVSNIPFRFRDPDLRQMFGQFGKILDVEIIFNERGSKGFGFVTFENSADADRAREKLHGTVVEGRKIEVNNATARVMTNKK
Strand | RBNS enrichment (R)
UGUAAUAAACCAAGCUGUACAAUUUAGUUUAUAAUAGCAGUAUCUGAGCUGCUCCAAAAUAUAUAUAUCAACAGUGGUAAAUACUGUAGAUUUUUAUAUAUAUAUAUAUA | 0.698
AGGCACACUCUUUUUUCCUUUUUCCUUAGGUUCCCAAUAUUAUUUGGUGGAAACGUGGGCUUUCUCCAAACCAAGGCCUGAGUUUCCUGUAAGGGUCCUCUGUUUUUGAU | 0.313
AGUCUGGAGUCUAGGGUUGGGCAGAAGAUGACAUUUAAUUUGGAAAUUUCUUUUUACUUUUGUGGAGCAUUAGAGUCACAGUUUACCUUAUUGAUAUUGGUCUGAUGGUU | 0.686
GUGGGUCUUAUGUGUGUCUGUGUCUUCUCCUUAAACACUCGCCCUGGAGUCUGUUCUCACACCUGUGCGCAGGUUUGCACACUCAAGUUCUCAUGGGCAGGCUCAGGUCU | 0.369
CCAUUUCCAAGGGCAGGAAGGGGCAGUGUCCUGAAGCCCAUCUUUUCUGUGACUGUCUUAGGUGAUGUGUAGCCCCCUCCACCUUUCCACUCAACAACCUCCCACCCCUG | 0.522
UGGUCUUGUUUCUUCAUAACUCACAAUCACUGGCUACCAAGAUAACCCUGAUGUAUUGAUUCCAUAAAUGCAUCACAUUCAGUUUUACCAUGUCUCCUUAGCAAACUUGU | 0.449
UUAACCUAGUGCUAGAUAGUCAGCUGCUGUUGCAGGUAGAAAAGCUCACCAAUGCCACAUUUGUUCAUUCUGUUCAACCUGUUUUGACCUCCCAGGCAUCUGAACAGGAU | 0.323
AUCACUUUUUCAAGGCUGGGUAGAGACAAGUUUCUCCUCGUAACUUUGACCUCUCCCACUCUCCAAAUGUAAUCUGGACCUCAUUGCUUUCAAGGUCAGCUUCCCCAUAG | 0.487

Block 2
Target: NFE2, bZIP domain (human)
Method: DHFR protein complementation
Medium: yeast
Notes: single substitutions, most at no-binding floor
Relative to: wild-type JUN-FOS pair
Direction: higher = stronger binding
Parent: JUN, bZIP domain (human); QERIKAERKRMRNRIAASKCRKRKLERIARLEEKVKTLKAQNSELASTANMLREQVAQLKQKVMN; partner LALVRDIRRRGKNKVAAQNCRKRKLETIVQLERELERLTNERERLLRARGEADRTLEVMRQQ
Substitution | binding fitness
L31D | -1.38 natural log
N42R | -1.48 natural log
R53M | -1.52 natural log
L31C | -1.34 natural log
L45H | -1.51 natural log
E54D | -1.52 natural log
A57N | -1.49 natural log
Q55Y | -1.52 natural log

Single results of other studies
P1: PafA, mature enzyme, eGFP fusion (Elizabethkingia meningoseptica, UniProt Q9KJX5); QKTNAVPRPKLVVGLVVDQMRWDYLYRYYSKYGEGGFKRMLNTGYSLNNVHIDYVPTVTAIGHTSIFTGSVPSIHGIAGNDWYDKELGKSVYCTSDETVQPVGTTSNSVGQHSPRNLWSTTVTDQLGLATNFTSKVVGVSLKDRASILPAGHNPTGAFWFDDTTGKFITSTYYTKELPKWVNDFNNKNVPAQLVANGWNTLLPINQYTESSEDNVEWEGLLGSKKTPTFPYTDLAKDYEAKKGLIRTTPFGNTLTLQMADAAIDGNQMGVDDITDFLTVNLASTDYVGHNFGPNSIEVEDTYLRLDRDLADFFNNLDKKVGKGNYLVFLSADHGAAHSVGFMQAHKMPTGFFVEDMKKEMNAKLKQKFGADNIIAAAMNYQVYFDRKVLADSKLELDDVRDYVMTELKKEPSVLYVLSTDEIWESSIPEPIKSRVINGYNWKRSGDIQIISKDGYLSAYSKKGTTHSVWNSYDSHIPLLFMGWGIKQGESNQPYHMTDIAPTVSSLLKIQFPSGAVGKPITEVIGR
Molecule | target or system | assay | system | conditions | scale | measurement | result
LCT (Homo sapiens, UniProt P09848) | PAXIP1 (Homo sapiens, UniProt Q6ZW49) | cross-linking MS | cell fractions | together with: DMTMM |  | cross-linked residues | D1711 to M1
PhoQ, residues 284 288 289 292 302 303 SLSLLA | PhoP, residues 12 14 15 18 19 NQAHL (Escherichia coli, UniProt P23836) | Sort-seq, measured: YFP reporter | E. coli | PhoQ-PhoP variant library, together with: 10 µM Mg2+ | relative to: high Mg2+ state, higher = stronger signaling | fold induction | 29.4
ADNP (Homo sapiens, UniProt Q9H2P0) | GTF3C4 (Homo sapiens, UniProt Q9UKN8) | cross-linking MS | cell fractions | together with: DMTMM |  | cross-linked residues | K699 to E677
P1 L507G | vanadate, free oxyanion | microfluidic competitive inhibition | in vitro, cell-free expressed | not given, derived from inhibition constants, unchanged parent 676 nM | lower = stronger binding | oxyanion analog dissociation constant | 1.18 µM
ATP5F1C (Homo sapiens, UniProt P36542) | ATP5MK (Homo sapiens, UniProt Q96IX5) | cross-linking MS |  | hits only |  | interaction screen | cross-linked
VPS11 (Homo sapiens, UniProt Q9H270) | VPS18 (Homo sapiens, UniProt Q9P253) | cross-linking MS | cell fractions | together with: DSSO |  | cross-linked residues | K909 to K481

For quick reference, copied from above (block 1):
Strand | RBNS enrichment (R)
GUGGGUCUUAUGUGUGUCUGUGUCUUCUCCUUAAACACUCGCCCUGGAGUCUGUUCUCACACCUGUGCGCAGGUUUGCACACUCAAGUUCUCAUGGGCAGGCUCAGGUCU | 0.369
UGGUCUUGUUUCUUCAUAACUCACAAUCACUGGCUACCAAGAUAACCCUGAUGUAUUGAUUCCAUAAAUGCAUCACAUUCAGUUUUACCAUGUCUCCUUAGCAAACUUGU | 0.449
AUCACUUUUUCAAGGCUGGGUAGAGACAAGUUUCUCCUCGUAACUUUGACCUCUCCCACUCUCCAAAUGUAAUCUGGACCUCAUUGCUUUCAAGGUCAGCUUCCCCAUAG | 0.487
